Assay results from different studies.
Parts stem from different laboratories: compare values within a part only. Positions count from the first letter of the parent shown.

Study 1 — target: CCNA1, cyclin fold, Cln2 fusion (human); method: yeast growth competition, sequencing; sample: yeast; setting: weak parent motif; baseline: not given; direction: higher = stronger binding; quantity: normalised enrichment score
Starting sequence: PKMYT1 docking peptide (human); SFEPRNLLSLFED; partner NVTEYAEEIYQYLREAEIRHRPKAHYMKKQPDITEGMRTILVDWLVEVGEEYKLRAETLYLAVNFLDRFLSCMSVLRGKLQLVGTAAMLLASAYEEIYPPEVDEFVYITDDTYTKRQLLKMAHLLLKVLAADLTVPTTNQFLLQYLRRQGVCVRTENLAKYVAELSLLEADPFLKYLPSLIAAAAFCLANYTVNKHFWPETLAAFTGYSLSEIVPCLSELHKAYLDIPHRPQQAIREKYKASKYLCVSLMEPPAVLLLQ
SFEPRNLASLFED [L8A]: 0.501
VFEPRNLLSLFED [S1V]: 0.408
CFEPRNLLSLFED [S1C]: 0.239
SFEPRNLMSLFED [L8M]: 0.369
SFEPRNLLELFED [S9E]: 0.231

Study 2 — method: protein-binding microarray; molecule type: double-stranded DNA, one strand shown; sample: in vitro; concentration: 940 nM top; setting: 60-bp whole probe; with: salmon DNA 0.4 mg/ml; baseline: random background probes; direction: higher = stronger binding; quantity: fitted relative affinity; constant ends, left off below: GCCTAGCAC … GTCTTGATTCGCTTGACGCTGCTG
Target: Interferon regulatory factor 5, full length, phosphomimetic (IRF5, Homo sapiens, UniProt Q13568-2, residues 1-514, S451D/S453D/S456D/S462D)
GACGGTTTCGACTTTCGGGAAGTGCTA: 7.34 z-score
GACGGACTGGGGTCTCGGGACGTGCTA: -0.164 z-score
TTAGATTTCAGTATCGAATAGTGCTAG: 2.45 z-score
TTAGGTTTCCTTATCCCTTAGTGCTAG: 2.19 z-score
CTCTCTTTCCACTTGTCTTTGTGCTAG: 2.63 z-score
TGAGGTTTCGACTATCGGTTAGTGCTA: 6.94 z-score
GACGGCATCCTACTGCTGACGTGCTAG: -0.273 z-score

Study 3 — method: protein binding microarray; molecule type: double-stranded DNA, one strand shown; sample: in vitro; concentration: not given; baseline: not given; direction: higher = stronger binding; quantity: E-score
Target: Histone acetyltransferase KAT6A, winged helix 2, GST fusion (KAT6A, Homo sapiens, UniProt Q92794, residues 85-181)
Setting: 8-mer, flanks averaged, mean of 2 arrays, mostly near background
Target sequence (chain): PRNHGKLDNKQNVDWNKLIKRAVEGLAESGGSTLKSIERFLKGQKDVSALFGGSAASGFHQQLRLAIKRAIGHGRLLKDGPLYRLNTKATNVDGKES
TCGGCCCA: 0.101
AGCCGTCG: 0.198
AACGCTCG: -0.0535
ACAGACTA: -0.134
AGTTCAAC: -0.0431

Other studies, line by line
PhoQ, residues 284 288 289 292 302 303 NLGVHL — fold induction (PhoP, residues 12 14 15 18 19 SQCLL (Escherichia coli, UniProt P23836); Sort-seq, item: YFP reporter; E. coli; PhoQ-PhoP variant library, with: 10 µM Mg2+; baseline: high Mg2+ state, higher = stronger signaling): 5.99

Some of these lines once more (study 2):
TGAGGTTTCGACTATCGGTTAGTGCTA: 6.94 z-score
